Measurements pooled from the literature.

CC(C)(C)C(=O)OCOP(=O)(OCOC(=O)C(C)(C)C)C1CCCN(O)C1=O (centres unmarked)  GI50 (HCT-15): 675 nM
O=C(C[Se]C(=O)c1ccccc1)Nc1cccc(C(F)(F)F)c1  GI50 (NCI60 colon subpanel; NCI60 five-dose screen): 6760 nM
Cc1c(Cl)c(=O)oc2cc(OCCCCCC[Se]C#N)ccc12  GI50 (SW1573; cell growth or viability, SRB): 18000 nM
CN(C)C(=O)c1cncc(-c2cnc3[nH]cc(-c4cc(OS(=O)(=O)F)ccc4C#N)c3c2)c1  GI50 (Ba/F3 BCR-ABL wild type; cell proliferation; 72 h): > 1000 nM
CC1CCC2C(C)C(OC(=O)CCC(=O)N3CCC(Nc4ccc(S(=O)(=O)NC(=O)c5ccc(N6CCN(CC7=C(c8ccc(Cl)cc8)CC(C)(C)CC7)CC6)cc5Oc5cnc6[nH]ccc6c5)cc4[N+](=O)[O-])CC3)OC3OC4(C)CCC1C32OO4 (centres unmarked)  GI50 (U-937; cell growth or viability): 230 nM
Cc1cc(=O)oc2cc(OCCCCCC[Se]C#N)ccc12  GI50 (SW1573; cell growth or viability, SRB): 5300 nM
CN(C)C(=O)c1cncc(-c2cnc3[nH]cc(-c4cc(OS(=O)(=O)F)ccc4C(F)(F)F)c3c2)c1  GI50 (Ba/F3 BCR-ABL wild type; cell proliferation; 72 h): > 1000 nM
O=C(C[Se]C(=O)c1ccco1)Nc1cccc(C(F)(F)F)c1  GI50 (NCI60 breast subpanel; NCI60 five-dose screen): 2670 nM

Excerpt of the above:
CC(C)(C)C(=O)OCOP(=O)(OCOC(=O)C(C)(C)C)C1CCCN(O)C1=O (centres unmarked)  GI50 (HCT-15): 675 nM
